Experimental data collected from several papers.
Protocols differ between the studies behind these lines.
Organism: Staphylococcus aureus

SMILES	test	test system	setting	how to read	MIC
C[C@H](NC(=O)[C@H](Cc1c[nH]c2ccccc12)NC(=O)[C@@H](N)CCCNC(=N)N)C(=O)N[C@@H](Cc1c[nH]c2ccccc12)C(=O)N[C@@H](CCCNC(=N)N)C(=O)N[C@@H](Cc1c[nH]c2ccccc12)C(=O)N[C@@H](CCC(N)=O)C(=O)N[C@@H](Cc1c[nH]c2ccccc12)C(=O)N[C@@H](CCCNC(=N)N)C(N)=O	broth microdilution	ATCC 25923	24 h, 37 °C		140 µM
CCCCCCN1C(=O)/C(=N\NC(=N)N)c2cc(C)ccc21	microbial growth, broth dilution		18 h		12 µg/mL
COC1COC(=O)N1/N=C/c1ccc([N+](=O)[O-])o1 (stereo not drawn)	microbial growth, broth dilution	ATCC29213	18 h		> 50 µg/mL
COC1C(C)C2C(C=CC3C(C)C=CC=CC(C)OC(=O)C(C)C(=O)C(Cl)(Cl)C(=O)C32)CC1(C)O (stereo not drawn)	microbial growth, broth dilution	NEWMAN			1.6 µg/mL
CNC(CC(C)C)C(=O)NC1C(=O)NC(CC(N)=O)C(=O)NC2C(=O)NC3C(=O)NC(C(=O)NC(C(=O)O)c4cc(O)cc(O)c4-c4cc3ccc4O)C(O)c3ccc(c(Cl)c3)Oc3cc2cc(c3OC2OC(CO)C(O)C(O)C2OC2CC(C)(NC(=O)CCCC[N+](C)(C)C)C(O)C(C)O2)Oc2ccc(cc2Cl)C1O (stereo not drawn)	agar dilution	MRSA clinical isolate MRSA3			512 µg/mL
CCCCN(CCCC)CC(O)COc1c2ccoc2c(OC)c2oc(CC)cc(=O)c12 (stereo not drawn)	microbial growth, broth dilution	ATCC6538	19 h		256 µg/mL
CCn1cc(C(=O)NCCNCCO)c(=O)c2cc(OC)c(OCc3cccc(Br)c3)cc21		ATCC 43300 MRSA		≥80% growth inhibition	> 32 µg/mL
Oc1c(Br)cc(Br)c2nc3cc(SC(F)(F)F)ccc3nc12	broth microdilution	MRSA 44			0.05 µM
CCCCO[C@H]1[C@H](O)[C@@H](N)[C@@H](O[C@H]2[C@H](O[C@@H]3O[C@H](CO)[C@@H](O[C@H]4O[C@@H](CN)[C@@H](O)[C@H](O)[C@H]4N)[C@H]3O)[C@@H](O)[C@H](N)C[C@@H]2N)O[C@@H]1CO	broth microdilution	MRSA isolate AG 039			16 to 32 µg/mL
CN(C)c1cc(CNCc2ccncc2)c(O)c2c1C[C@H]1C[C@H]3[C@H](N(C)C)C(O)=C(C(N)=O)C(=O)[C@@]3(O)C(O)=C1C2=O		RN4250, Tet K efflux			4 µg/mL
C[n+]1ccc(/C=C2\Sc3ccccc3N2CCCN2CCCC2)c2ccccc21	microbial growth, broth dilution	ATCC43300 MRSA			8 µg/mL
CN(Cc1cc(N(C)C)c2c(c1O)C(=O)C1=C(O)[C@]3(O)C(=O)C(C(N)=O)=C(O)[C@@H](N(C)C)[C@@H]3C[C@@H]1C2)CC(C)(C)C		MRSA 5, Tet M, 50% mouse serum			32 µg/mL
COc1ccc(NC(=O)CSc2nc3ccccc3c(=O)n2-c2ccc(S(N)(=O)=O)cc2)cc1		methicillin-resistant	24 h, 37 °C		7.81 µg/mL
CN(C)c1cc(CN2CCc3ccccc3C2)c(O)c2c1C[C@H]1C[C@H]3[C@H](N(C)C)C(O)=C(C(N)=O)C(=O)[C@@]3(O)C(O)=C1C2=O		MRSA 5, Tet M ribosome protection			0.5 µg/mL
O=C1c2ccccc2C(=O)c2c1ccc1c2C(C(=O)NCc2ccccc2)C(=O)C1c1ccccc1 (stereo not drawn)	microbial growth				64 µg/mL

Some of these lines once more:
SMILES	test	test system	setting	how to read	MIC
CCCCCCN1C(=O)/C(=N\NC(=N)N)c2cc(C)ccc21	microbial growth, broth dilution		18 h		12 µg/mL
